# Experimental data gathered from unrelated publications.
# Chain of UniProt Q13177 (whole entry, looked up): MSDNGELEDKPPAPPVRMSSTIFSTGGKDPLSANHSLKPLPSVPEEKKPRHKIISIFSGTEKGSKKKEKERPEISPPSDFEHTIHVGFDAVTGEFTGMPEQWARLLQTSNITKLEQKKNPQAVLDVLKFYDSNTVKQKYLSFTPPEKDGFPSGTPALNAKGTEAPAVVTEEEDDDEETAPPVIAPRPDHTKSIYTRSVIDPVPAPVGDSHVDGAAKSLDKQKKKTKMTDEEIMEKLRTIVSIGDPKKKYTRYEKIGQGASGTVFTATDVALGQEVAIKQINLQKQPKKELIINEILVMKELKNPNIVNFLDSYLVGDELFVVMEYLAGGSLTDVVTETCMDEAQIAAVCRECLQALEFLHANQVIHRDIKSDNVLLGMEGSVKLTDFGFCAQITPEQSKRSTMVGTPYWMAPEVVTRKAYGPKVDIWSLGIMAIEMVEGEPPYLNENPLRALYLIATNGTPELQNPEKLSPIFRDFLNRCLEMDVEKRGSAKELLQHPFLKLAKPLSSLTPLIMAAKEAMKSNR
# Chain of UniProt Q16288 (whole entry, looked up): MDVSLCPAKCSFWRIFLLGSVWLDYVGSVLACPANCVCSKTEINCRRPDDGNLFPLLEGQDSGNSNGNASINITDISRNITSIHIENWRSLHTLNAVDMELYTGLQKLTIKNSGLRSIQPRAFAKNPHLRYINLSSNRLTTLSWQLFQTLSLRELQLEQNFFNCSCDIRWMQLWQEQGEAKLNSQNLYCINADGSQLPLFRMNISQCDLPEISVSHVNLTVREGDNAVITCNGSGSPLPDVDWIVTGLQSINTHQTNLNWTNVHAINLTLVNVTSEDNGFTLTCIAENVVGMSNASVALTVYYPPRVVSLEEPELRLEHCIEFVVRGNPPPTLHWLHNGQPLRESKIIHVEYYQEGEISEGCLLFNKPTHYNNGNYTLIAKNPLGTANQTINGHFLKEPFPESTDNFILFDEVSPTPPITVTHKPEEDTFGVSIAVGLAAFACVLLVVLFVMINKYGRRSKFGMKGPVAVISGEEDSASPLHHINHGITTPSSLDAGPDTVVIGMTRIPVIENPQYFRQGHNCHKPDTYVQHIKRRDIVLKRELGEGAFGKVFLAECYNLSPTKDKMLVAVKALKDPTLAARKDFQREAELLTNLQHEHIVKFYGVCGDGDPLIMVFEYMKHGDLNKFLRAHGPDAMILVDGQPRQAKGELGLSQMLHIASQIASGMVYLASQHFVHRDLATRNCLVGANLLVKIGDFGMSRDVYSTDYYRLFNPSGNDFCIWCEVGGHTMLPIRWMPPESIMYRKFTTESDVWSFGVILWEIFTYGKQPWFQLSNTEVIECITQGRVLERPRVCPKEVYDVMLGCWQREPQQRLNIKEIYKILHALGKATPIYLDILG
# Chain of UniProt P10721 (whole entry, looked up): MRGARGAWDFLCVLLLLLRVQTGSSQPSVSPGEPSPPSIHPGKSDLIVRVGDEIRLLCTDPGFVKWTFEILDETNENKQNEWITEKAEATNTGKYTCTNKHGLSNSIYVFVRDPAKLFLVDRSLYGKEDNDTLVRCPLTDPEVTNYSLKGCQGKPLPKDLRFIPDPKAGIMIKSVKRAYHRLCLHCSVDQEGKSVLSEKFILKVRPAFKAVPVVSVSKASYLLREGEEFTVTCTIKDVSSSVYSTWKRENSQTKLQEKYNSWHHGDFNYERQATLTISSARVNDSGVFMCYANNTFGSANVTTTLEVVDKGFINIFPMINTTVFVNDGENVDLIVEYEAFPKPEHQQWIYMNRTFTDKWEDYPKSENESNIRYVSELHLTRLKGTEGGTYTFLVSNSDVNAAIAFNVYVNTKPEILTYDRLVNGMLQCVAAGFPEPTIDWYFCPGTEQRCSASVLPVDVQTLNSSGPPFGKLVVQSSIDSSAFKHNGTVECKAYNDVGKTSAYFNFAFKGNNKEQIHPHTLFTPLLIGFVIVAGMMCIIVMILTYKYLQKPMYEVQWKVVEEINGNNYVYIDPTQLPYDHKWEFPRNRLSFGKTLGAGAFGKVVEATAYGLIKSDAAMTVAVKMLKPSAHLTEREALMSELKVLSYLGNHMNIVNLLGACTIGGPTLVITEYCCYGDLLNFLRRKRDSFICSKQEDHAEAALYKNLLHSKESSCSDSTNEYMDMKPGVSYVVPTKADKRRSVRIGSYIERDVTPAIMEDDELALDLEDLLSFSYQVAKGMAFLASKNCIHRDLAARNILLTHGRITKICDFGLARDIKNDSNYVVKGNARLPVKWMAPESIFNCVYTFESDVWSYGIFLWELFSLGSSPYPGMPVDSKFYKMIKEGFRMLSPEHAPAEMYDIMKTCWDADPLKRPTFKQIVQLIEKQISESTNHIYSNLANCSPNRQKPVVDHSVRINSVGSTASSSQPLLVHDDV
# Chain of UniProt P54760 (whole entry, looked up): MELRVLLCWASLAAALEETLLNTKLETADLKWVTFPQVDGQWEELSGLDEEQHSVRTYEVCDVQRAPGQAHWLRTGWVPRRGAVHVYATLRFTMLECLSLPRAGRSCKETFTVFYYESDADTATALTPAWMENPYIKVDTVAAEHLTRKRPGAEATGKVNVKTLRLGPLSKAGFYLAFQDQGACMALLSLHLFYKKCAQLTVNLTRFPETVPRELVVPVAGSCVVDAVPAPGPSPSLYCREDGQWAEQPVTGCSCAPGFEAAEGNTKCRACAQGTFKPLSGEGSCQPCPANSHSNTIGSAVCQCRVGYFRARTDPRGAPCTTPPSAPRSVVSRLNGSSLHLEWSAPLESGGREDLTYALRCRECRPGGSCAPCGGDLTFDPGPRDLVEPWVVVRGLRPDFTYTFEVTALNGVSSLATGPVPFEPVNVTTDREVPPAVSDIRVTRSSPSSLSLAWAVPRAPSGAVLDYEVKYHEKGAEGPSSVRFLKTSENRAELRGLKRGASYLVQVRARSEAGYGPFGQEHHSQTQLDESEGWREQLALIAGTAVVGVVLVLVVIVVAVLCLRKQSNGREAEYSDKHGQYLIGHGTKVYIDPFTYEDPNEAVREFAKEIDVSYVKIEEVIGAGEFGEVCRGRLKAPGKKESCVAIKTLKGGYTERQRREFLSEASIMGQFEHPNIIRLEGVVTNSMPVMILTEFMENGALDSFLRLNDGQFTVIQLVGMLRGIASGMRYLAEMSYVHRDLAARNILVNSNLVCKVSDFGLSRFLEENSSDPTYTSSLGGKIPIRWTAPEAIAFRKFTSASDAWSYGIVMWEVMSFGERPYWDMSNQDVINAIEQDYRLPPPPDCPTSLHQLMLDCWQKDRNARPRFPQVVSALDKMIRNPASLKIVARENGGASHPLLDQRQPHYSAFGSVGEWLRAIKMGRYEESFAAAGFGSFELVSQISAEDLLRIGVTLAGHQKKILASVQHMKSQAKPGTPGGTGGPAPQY
Compound,tested on,test,system,conditions,quantity,value
CNc1ncc2c(/C=C/C(=O)N3CCC(OC)CC3)nn(Cc3cccc(C(F)(F)F)c3)c2n1,"NT-3 growth factor receptor (NTRK3, Homo sapiens, UniProt Q16288)","enzyme activity, inhibitor, radiometric",,1 µM,remaining activity,83%
COc1cc(-c2cncc3c2CN(C)Cc2cc(N4CCNCC4)ccc2-3)cc(OC)c1OC,"Serine/threonine-protein kinase PAK 2 (PAK2, Homo sapiens, UniProt Q13177)","enzyme activity, inhibitor",,1 µM,remaining activity,101%
O=c1ccc2ccc(O)cc2o1,,metabolic stability,"monkey, liver microsomes",,half-life,0.0408 h
O=C(COc1ccc(Cl)cc1)NC12CC(c3nnc([C@H]4C[C@@H](OC(F)(F)F)C4)o3)(C1)C2,,,"human, plasma","oral, 200 mg, single dose, fasted, healthy volunteers",half-life,30.6 h
C=CCn1c(=O)c2cnc(Nc3ccc(N4CCN(C)CC4)cc3)nc2n1-c1ccc2c(n1)[C@@](O)(CC)CC2,,metabolic stability,"dog, liver microsomes",,half-life,0.3 h
COc1ccc2c(c1)CN(C(=O)CCN1CCC(Cc3ccccc3)CC1)CC[S@@+]2[O-],,,"male human, plasma","intravenous, 0.05 mg/kg, single dose, healthy volunteers",half-life,5.31 h
O=C(c1ccc(F)cc1)C1CCN(CCn2c(=O)[nH]c3ccccc3c2=O)CC1,,metabolic stability,"dog, liver microsomes",,half-life,0.753 h
Cc1cc([C@@H](C)Nc2ccccc2C(=O)O)c2nc(N3CCC(F)(F)CC3)c(C#N)c(=O)n2c1,"Mast/stem cell growth factor receptor Kit (KIT, Homo sapiens, UniProt P10721)","binding, competition with immobilised ligand",,10 µM,remaining binding,100%
C=CC(=O)N1CCC(COCC(=O)N2CCN(c3nc(-c4cnc(N)nc4C(F)F)nc(N4CCOC[C@@H]4C)n3)CC2)CC1,"Ephrin type-B receptor 4 (EPHB4, Homo sapiens, UniProt P54760)","binding, competition with immobilised ligand",,1 µM,remaining binding,100%
O=C1CC[C@H](N2Cc3cc(N4CCN(CC5CCN(c6ccc([C@@H]7c8ccc(O)cc8CC[C@@H]7c7ccccc7)cc6)CC5)CC4)ccc3C2=O)C(=O)N1,,,"male Sprague-Dawley rat, plasma","oral, 20 mg/kg, fasted",half-life,2.86 h
NS(=O)(=O)OC[C@@H]1C[C@@H](n2ccc3c(N[C@H]4CCc5ccccc54)ncnc32)C[C@@H]1O,,,"human, plasma","intravenous, 25 mg/m², patients",half-life,5.2 h
N#C[C@@]12C[C@@H]1[C@@H](n1cnc3c(N[C@@H](C4CCC4)C4CC4)nc(I)nc31)[C@H](O)[C@@H]2O,,,"male Wistar rat, plasma","oral, 10 mg/kg",half-life,1.75 h

# Repeated from above:
Compound,tested on,test,system,conditions,quantity,value
O=C1CC[C@H](N2Cc3cc(N4CCN(CC5CCN(c6ccc([C@@H]7c8ccc(O)cc8CC[C@@H]7c7ccccc7)cc6)CC5)CC4)ccc3C2=O)C(=O)N1,,,"male Sprague-Dawley rat, plasma","oral, 20 mg/kg, fasted",half-life,2.86 h
C=CC(=O)N1CCC(COCC(=O)N2CCN(c3nc(-c4cnc(N)nc4C(F)F)nc(N4CCOC[C@@H]4C)n3)CC2)CC1,"Ephrin type-B receptor 4 (EPHB4, Homo sapiens, UniProt P54760)","binding, competition with immobilised ligand",,1 µM,remaining binding,100%
